# Published values from different studies.
# Each line is one published result; not all experiments were run side by side. “And” joins repeats or separate records; there may be more than shown. Numbers after ± are the reported error.
Structure (SMILES),assay,system,conditions,how to read,measurement,value
CCOC(=O)[C@H](CCc1ccccc1)N[C@@H](C)C(=O)N1CCC[C@H]1C(=O)O,,renal hypertensive rat,"sc osmotic minipump, 40 mg/kg/day",baseline: vehicle,heart rate,no effect
O=C(OC(C(F)(F)F)C(F)(F)F)N1CCN(Cc2cccc(Oc3ccccc3)c2)CC1,PET blocking study,"rhesus monkey, brain occipital cortex","intravenous, 0.03 mg/kg, compound pretreatment, together with: [18F]T-401 tracer",,volume of distribution,5.41 mL/cm3
C[C@H](NC(=O)c1c(C(F)F)nn(C)c1Oc1cccc(C(F)(F)F)c1)c1ccc(C(=O)O)cc1,irRECIST,"human, advanced tumours",125 mg,best overall response,progressive disease,37.5%
Nc1nc2cc(-c3ccc4ncc(C(=O)N5CCOCC5)n4c3)ccc2o1,"IHC, refers to: phospho-S6 Ser235/236","advanced solid tumour patients, skin biopsy","200 mg or higher, sample A patients",,pS6 level,decreased
COC(=O)CCc1ccc(OCC(O)CNC(C)C)cc1 (centres unmarked),,healthy male humans,"concentration not given, 15 min, baseline before dosing, together with: saline",,heart rate,59.3 beats/min
NCC(=O)Nc1cncc(-c2nn3c(=O)cc(N4CCNCC4)nc3s2)c1,"ADP-induced platelet aggregation, light transmission aggregometry","human stable CAD patients on aspirin, platelets ex vivo","0.05 mg/kg, 90 min post dose, together with: 20 µM ADP",baseline: placebo difference,inhibition of platelet aggregation,24.9%
OC(CCN1CCCCC1)(c1ccccc1)C1CC2C=CC1C2 (centres unmarked),resting-state EEG,healthy elderly humans,"oral, 2 mg, eyes open, LS mean",,"EEG power, alpha, Fz-Cz",4.5 µV²
NC(=O)c1cnc2[nH]ccc2c1N[C@@H]1[C@@H]2CC3C[C@H]1C[C@@](O)(C3)C2,"flow cytometry, refers to: CD4+ effector T cells","Japanese healthy subjects, peripheral blood","oral, 10 mg twice daily, day 4",,change from baseline,0%
CCc1c(C)nc(-c2ccc(Cl)s2)nc1Nc1ccc(CC(=O)O)cc1,,"mice, chronic ethanol plus binge","intraperitoneal, 0.3 mg/kg daily, ethanol diet 4 weeks, dosed last two",baseline: vehicle,serum total bilirubin,no effect
CC(C)n1c(C2CCNCC2)nc2c([N+](=O)[O-])c(Br)c(Br)cc21,,"patients with AML, bone marrow","all dose levels, ≥50% reduction from baseline",,patients with blast reduction,24%
C=CCn1c(=O)c2cnc(Nc3ccc(N4CCN(C)CC4)cc3)nc2n1-c1ccc2c(n1)[C@@](O)(CC)CC2,,"CB17 SCID mouse, 22Rv1 xenograft","oral, 80 mg/kg, 5 d on 2 d off ×3, day 19",baseline: vehicle,tumour volume difference,1030 ± 72 mm3
CN(C)C(=O)Oc1cccc([N+](C)(C)C)c1,,rat cisatracurium-induced neuromuscular block,0.04 mg/kg,,twitch response,54.3% and 43.6% and 52.6% and 31.4%
O=C1Nc2cc3[nH]nc(-c4ccncc4)c3cc2CN1Cc1ccccc1,RECIST v1.1,"human, relapsed or refractory advanced solid tumours","intravenous, 7.2 mg/kg",,"stable disease, best response",33%
CC(C)[C@H](C(=O)Nc1ccc(C(=O)NO)cc1)c1ccccc1,,"human, right ear",9 months after treatment,,pure tone average,12 dB
C[C@H]1O[C@@H](O[C@H]2CC[C@@]3(C)[C@@H](CC[C@]4(C)[C@@H]3C=C[C@]35OC[C@@]6(CCC(C)(C)C[C@H]63)[C@@H](O)C[C@]54C)[C@]2(C)CO)[C@H](O)[C@@H](O[C@@H]2O[C@H](CO)[C@@H](O)[C@H](O)[C@H]2O)[C@H]1O,,"chronic-plus-binge ethanol-fed mice, liver","dose not given, medium dose",baseline: area,Oil Red O area,9.38% and 13% and 14.1% and 13.4%
CC(=O)NCC(=O)NCC(=O)N[C@H](C(=O)N[C@@H](Cc1ccc(O)cc1)C(=O)N[C@@H](CO)C(=O)N[C@H]1CSSC[C@@H](C(=O)N[C@@H](CCCNC(=N)N)C(=O)N2CCC[C@H]2C(=O)N[C@@H](CCC(N)=O)C(=O)N[C@@H](CCCNC(=N)N)C(=O)NCC(=O)NCCC(=O)N[C@@H](CCCCNC(=O)CN(CC(=O)NCCCC[C@H](NC(=O)CCNC(=O)CNC(=O)[C@H](CCCNC(=N)N)NC(=O)[C@H](CCC(N)=O)NC(=O)[C@@H]2CCCN2C(=O)[C@H](CCCNC(=N)N)NC(=O)[C@@H]2CSSC[C@H](NC(=O)[C@H](CO)NC(=O)[C@H](Cc3ccc(O)cc3)NC(=O)[C@@H](NC(=O)CNC(=O)CNC(C)=O)[C@@H](C)O)C(=O)N[C@@H](Cc3c[nH]cn3)C(=O)N[C@@H](Cc3ccccc3)C(=O)NCC(=O)N[C@@H](C)C(=O)N[C@@H](CC(C)C)C(=O)N[C@@H]([C@@H](C)O)C(=O)N[C@@H](Cc3c[nH]c4ccccc34)C(=O)N[C@@H](C(C)C)C(=O)N2)C(N)=O)C(=O)CCN)C(N)=O)NC(=O)[C@H](C(C)C)NC(=O)[C@H](Cc2c[nH]c3ccccc23)NC(=O)[C@H]([C@@H](C)O)NC(=O)[C@H](CC(C)C)NC(=O)[C@H](C)NC(=O)CNC(=O)[C@H](Cc2ccccc2)NC(=O)[C@H](Cc2c[nH]cn2)NC1=O)[C@@H](C)O,,healthy BALB/c mice,"subcutaneous, 0.08 mg/kg, 14 d, single dose",,reticulocytes,4.6%
COc1cc2cc(-c3ccc(CC(=O)Nc4cc(C(C)(C)C(F)(F)F)no4)cn3)cnc2cc1OC,RECIST v1.1,human RET-altered solid tumours,"13 100 mg tablets, phase I",,best overall response PD,13%
O=C(O)CNC(=O)Cc1ccccc1,,"ventricular cardiomyocytes, C57BL/6 mouse","dose not given, 0.272 s",,sarcomere length,1.67 µm
COc1nnc2ccc(N3CCC(c4ccc(OCCN5CCN(C)C(=O)[C@H]5C)cc4)CC3)nn12,,relapsed/refractory solid tumour or lymphoma patients,"dose not given, reduction above 10%",,patients with target lesion reduction,6.1%
N#Cc1ccc2c(-c3ccncc3)c(-c3ccc(F)cc3)nn2c1,"kinase binding, competitor, MIB/MS competition, refers to: CKA1",Candida albicans cell lysate,10 µM,baseline: DMSO,log2 fold change,0.22
O=C(COc1ccc(Cl)cc1)NC12CC(c3nnc([C@H]4C[C@@H](OC(F)(F)F)C4)o3)(C1)C2,refers to: CHAC1,"PBMC ex vivo stimulated, human ALS patients","200 mg, D7 predose",baseline: baseline,mRNA level change,-82.1%
N#Cc1ccn2c(-c3ccncc3)c(-c3ccc(F)cc3)nc2c1,"kinase binding, competitor, MIB/MS competition, refers to: PBS2",Candida albicans cell lysate,100 nM,baseline: DMSO,log2 fold change,-0.435
Cc1cc(-c2nnc(N)nc2-c2ccc(F)cc2)cc(Cl)n1,"NanoString, refers to: IFNg.Fluidigm.Merck.IO signature","human mCRPC, peripheral blood","dose not given, 2 or 4 weeks","baseline: baseline, direction not given",GSVA score change,0.152
C1=C/COCc2cc(ccc2OCCN2CCCC2)Nc2nccc(n2)-c2cccc(c2)COC/1,,"BALB/c mice rhEPO-induced polycythemia, spleen",120 mg/kg,,CD71/Ter119 cells,21.8% and 24.2% and 23% and 23.8% and 23.7% and 17.8%
CC(C)NCC(O)c1ccc(O)c(O)c1 (centres unmarked),,"ventricular cardiomyocytes, C57BL/6 mouse","dose not given, 0.82 s",,sarcomere length,1.56 µm
CCN1CCN(Cc2ccc(Nc3ncc(F)c(-c4cc(F)c5nc6n(c5c4)[C@H](C)CCC6)n3)nc2)CC1,RECIST v1.1,advanced solid tumour patients,Phase Ia monotherapy,,ORR,4.2%

# For quick reference, copied from above:
Structure (SMILES),assay,system,conditions,how to read,measurement,value
CN(C)C(=O)Oc1cccc([N+](C)(C)C)c1,,rat cisatracurium-induced neuromuscular block,0.04 mg/kg,,twitch response,54.3% and 43.6% and 52.6% and 31.4%
C1=C/COCc2cc(ccc2OCCN2CCCC2)Nc2nccc(n2)-c2cccc(c2)COC/1,,"BALB/c mice rhEPO-induced polycythemia, spleen",120 mg/kg,,CD71/Ter119 cells,21.8% and 24.2% and 23% and 23.8% and 23.7% and 17.8%
